Measured values gathered from unrelated publications.
Numbered parts are unrelated; each lists some results of a single study. “And” joins repeats or separate records; there may be more than shown.
UniProt P00519, sequence (whole entry, unmodified, looked up): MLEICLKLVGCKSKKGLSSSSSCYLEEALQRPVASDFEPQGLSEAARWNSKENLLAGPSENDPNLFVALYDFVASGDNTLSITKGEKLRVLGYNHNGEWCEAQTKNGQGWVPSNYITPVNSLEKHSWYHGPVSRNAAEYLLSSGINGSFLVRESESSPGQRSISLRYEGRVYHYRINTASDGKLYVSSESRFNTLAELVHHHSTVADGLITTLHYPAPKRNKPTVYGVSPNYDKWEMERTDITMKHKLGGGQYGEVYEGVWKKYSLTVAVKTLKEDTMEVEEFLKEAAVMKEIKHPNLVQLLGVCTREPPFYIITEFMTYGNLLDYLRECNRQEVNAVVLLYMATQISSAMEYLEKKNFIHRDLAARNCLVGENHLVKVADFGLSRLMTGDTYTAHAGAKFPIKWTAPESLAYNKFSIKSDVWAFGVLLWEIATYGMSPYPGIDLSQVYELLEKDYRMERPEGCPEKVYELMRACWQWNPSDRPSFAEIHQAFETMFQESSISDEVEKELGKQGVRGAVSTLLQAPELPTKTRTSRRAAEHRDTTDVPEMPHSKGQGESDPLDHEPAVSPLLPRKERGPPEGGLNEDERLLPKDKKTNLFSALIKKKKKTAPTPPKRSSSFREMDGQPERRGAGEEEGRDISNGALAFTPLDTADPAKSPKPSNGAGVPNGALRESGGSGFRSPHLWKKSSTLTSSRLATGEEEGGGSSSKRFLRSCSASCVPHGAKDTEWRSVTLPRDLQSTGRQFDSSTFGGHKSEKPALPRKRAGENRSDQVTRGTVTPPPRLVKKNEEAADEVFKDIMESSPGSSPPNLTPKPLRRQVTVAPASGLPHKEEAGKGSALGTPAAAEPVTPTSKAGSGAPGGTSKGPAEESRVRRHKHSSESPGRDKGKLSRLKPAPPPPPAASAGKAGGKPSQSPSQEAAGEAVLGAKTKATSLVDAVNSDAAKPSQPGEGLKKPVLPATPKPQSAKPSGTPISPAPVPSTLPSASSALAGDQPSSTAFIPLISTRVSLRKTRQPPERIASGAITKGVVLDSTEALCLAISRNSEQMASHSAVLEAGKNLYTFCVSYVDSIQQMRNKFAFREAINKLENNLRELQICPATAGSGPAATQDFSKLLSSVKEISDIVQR
UniProt P53779, sequence (whole entry, looked up): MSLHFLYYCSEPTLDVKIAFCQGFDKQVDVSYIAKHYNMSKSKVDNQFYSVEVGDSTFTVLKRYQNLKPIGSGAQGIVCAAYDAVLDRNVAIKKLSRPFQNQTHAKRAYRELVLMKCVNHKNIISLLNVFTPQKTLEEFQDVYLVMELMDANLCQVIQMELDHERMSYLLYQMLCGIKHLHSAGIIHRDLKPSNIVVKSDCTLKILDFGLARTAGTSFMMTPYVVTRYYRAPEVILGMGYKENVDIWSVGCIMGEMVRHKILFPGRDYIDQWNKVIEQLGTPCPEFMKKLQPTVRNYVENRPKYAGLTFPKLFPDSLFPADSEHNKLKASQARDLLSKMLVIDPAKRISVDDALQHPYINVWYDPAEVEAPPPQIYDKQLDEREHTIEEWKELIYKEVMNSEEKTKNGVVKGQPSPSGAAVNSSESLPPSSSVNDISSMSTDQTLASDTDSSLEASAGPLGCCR
UniProt Q16288, sequence (whole entry, looked up): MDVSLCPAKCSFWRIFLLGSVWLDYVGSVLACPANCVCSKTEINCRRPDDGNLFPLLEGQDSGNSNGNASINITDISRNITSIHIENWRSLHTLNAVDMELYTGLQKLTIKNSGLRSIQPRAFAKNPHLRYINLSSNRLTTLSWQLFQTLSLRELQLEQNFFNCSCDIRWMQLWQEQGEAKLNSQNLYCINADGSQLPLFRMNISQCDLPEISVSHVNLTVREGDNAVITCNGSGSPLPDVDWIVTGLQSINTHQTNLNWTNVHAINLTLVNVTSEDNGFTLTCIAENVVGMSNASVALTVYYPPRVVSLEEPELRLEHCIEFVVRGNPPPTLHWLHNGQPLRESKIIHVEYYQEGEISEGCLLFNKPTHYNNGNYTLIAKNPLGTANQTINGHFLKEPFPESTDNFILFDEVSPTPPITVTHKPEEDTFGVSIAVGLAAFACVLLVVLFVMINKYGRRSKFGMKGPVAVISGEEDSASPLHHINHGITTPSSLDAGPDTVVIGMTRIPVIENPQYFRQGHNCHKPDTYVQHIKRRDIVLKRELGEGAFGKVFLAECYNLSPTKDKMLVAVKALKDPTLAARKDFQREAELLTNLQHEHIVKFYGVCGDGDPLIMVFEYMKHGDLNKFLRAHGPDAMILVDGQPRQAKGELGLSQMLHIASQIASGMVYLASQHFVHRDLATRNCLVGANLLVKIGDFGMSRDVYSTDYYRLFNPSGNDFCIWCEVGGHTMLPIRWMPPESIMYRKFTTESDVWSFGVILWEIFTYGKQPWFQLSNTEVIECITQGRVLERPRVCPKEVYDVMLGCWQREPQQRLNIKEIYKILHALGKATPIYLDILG
UniProt P27448, sequence (whole entry, looked up): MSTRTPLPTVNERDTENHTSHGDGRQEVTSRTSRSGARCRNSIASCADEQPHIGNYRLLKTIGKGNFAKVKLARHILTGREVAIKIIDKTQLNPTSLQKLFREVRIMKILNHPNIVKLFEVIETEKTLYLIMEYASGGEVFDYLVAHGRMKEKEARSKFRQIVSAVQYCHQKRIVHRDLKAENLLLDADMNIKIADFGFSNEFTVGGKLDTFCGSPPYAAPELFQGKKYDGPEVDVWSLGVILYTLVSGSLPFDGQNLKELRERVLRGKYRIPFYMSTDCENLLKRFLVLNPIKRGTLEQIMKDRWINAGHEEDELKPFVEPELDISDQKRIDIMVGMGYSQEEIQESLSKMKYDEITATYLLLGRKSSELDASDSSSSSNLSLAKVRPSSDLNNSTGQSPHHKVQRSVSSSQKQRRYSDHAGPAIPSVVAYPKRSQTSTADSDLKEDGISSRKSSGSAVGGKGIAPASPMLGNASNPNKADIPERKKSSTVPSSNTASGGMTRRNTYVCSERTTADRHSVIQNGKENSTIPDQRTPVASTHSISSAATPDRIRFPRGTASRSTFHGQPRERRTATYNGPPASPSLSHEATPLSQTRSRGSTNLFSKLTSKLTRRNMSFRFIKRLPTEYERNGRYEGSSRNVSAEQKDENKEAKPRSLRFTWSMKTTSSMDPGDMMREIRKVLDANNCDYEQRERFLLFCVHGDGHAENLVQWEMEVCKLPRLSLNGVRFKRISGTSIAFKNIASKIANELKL
UniProt O15530, sequence (whole entry, looked up): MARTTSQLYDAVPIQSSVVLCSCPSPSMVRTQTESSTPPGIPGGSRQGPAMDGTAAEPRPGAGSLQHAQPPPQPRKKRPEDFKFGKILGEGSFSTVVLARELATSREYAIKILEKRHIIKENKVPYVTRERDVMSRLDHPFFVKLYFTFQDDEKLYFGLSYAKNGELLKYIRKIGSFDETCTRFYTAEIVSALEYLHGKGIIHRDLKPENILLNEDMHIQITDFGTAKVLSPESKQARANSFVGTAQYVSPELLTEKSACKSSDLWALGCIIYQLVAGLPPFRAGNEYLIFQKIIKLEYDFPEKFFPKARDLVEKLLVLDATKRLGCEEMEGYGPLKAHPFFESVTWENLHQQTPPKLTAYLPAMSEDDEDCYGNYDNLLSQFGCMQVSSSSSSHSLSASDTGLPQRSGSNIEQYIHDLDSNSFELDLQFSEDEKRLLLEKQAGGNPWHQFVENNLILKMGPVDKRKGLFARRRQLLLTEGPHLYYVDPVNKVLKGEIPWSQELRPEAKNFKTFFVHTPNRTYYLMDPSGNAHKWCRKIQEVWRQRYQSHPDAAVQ

Study 1
SMILES: CCCOc1ccc([C@H]2[C@H](C(=O)O)[C@@H](c3ccc4c(c3)OCO4)CN2CC(=O)Nc2c(CC)cccc2CC)cc1
Technique: competition with immobilised ligand
Concentration: 1 µM
target | observed | remaining binding [%]
Tyrosine-protein kinase ABL1, phosphorylated (ABL1, Homo sapiens, UniProt P00519, F317L) | cell-free assay | 68
CSK (Homo sapiens, UniProt P41240) | cell-free assay | 80
MARK3 (Homo sapiens, UniProt P27448) | cell-free assay | 100
MAPK10 (Homo sapiens, UniProt P53779) | cell-free assay | 80
SRMS (Homo sapiens, UniProt Q9H3Y6) | cell-free assay | 63
PDPK1 (Homo sapiens, UniProt O15530) | cell-free assay | 100
NEK11 (Homo sapiens, UniProt Q8NG66) | cell-free assay | 59
EGFR (Homo sapiens, UniProt P00533) | cell-free assay | 100
KDR (Homo sapiens, UniProt P35968) | cell-free assay | 77
Tyrosine-protein kinase ABL1, non-phosphorylated (ABL1, Homo sapiens, UniProt P00519, F317I) | binding | 76

Study 2
Cell line: mouse MPNST tumor cells
Technique: high-content immunofluorescence imaging
Refers to: nuclear SOX9
Concentration: 10 µM
Time: 12 h
Setting: mean of 2 replicates
Reference: DMSO control
Direction: higher = more nuclear SOX9
Compound | nuclear SOX9 intensity
Cc1scc2c1N(C(=O)CN1CCN(C)CC1)c1ccccc1NC2=O | 103 % of DMSO
O=C(O)CCc1ccc(NCc2cccc(Oc3ccccc3)c2)cc1 | 108 % of DMSO
COc1cccc(-n2nc(C(=O)O)cc2-c2ccc(C3CCCCC3)c(Cl)c2)c1 | 137 % of DMSO
CCCC(CCC)C(=O)O | 89.5 % of DMSO and 87.4 % of DMSO and 102 % of DMSO
O=P(O)(O)C(O)(Cn1ccnc1)P(=O)(O)O | 93.1 % of DMSO
N=C(N)SCc1ccc(B(O)O)cc1 | 98.2 % of DMSO
Cn1c(=O)c2[nH]c(C3CCCC3)nc2n(C)c1=O | 93.3 % of DMSO
CC(C)(Oc1ccc(C2CC2(Cl)Cl)cc1)C(=O)O (stereo not drawn) | 99.5 % of DMSO

Study 3
SMILES: CC(C)(C(=O)O)[C@H](NC(=O)Cc1cccc(I)c1)c1ccc2oc(=O)[nH]c2c1
Technique: Incucyte 3D growth
Concentration: 30 µM
Direction: higher = more growth
cell line | time | spheroid area
MEL-JUSO | 474.52 h | 2.18e+07 a.u. and 2.52e+07 a.u. and 3.6e+07 a.u. and 2.33e+07 a.u. and 5.4e+07 a.u. and 7.51e+07 a.u.
KP-4 | 276 h | 1e+08 a.u. and 7e+07 a.u. and 4.88e+07 a.u. and 2.71e+07 a.u. and 6.76e+07 a.u. and 9.43e+07 a.u.
NCI-H1437 | 204 h | 3.35e+07 a.u. and 8.05e+07 a.u. and 4.73e+07 a.u. and 6.9e+07 a.u. and 8.06e+07 a.u. and 5.1e+07 a.u.
IPC-298 | 204 h | 2.27e+07 a.u. and 3.07e+07 a.u. and 3.1e+07 a.u. and 2.67e+07 a.u. and 2.77e+07 a.u. and 3.76e+07 a.u.
NCI-H358 | 12 h | 3.36e+06 a.u. and 3.23e+06 a.u. and 3.04e+06 a.u. and 3.44e+06 a.u. and 3.63e+06 a.u. and 3.05e+06 a.u.
MEL-JUSO | 342.52 h | 5.8e+07 a.u. and 4.04e+07 a.u. and 3.39e+07 a.u. and 3.63e+07 a.u. and 4.67e+07 a.u. and 3.76e+07 a.u.

Study 4
Compound: Nc1nc(Nc2ccc(S(N)(=O)=O)cc2)nn1C(=O)c1c(F)cccc1F
Observed: enzyme activity
Action: inhibitor
Concentration: 0.5 µM
Reference: control
target | remaining activity
EGFR (Homo sapiens, UniProt P00533) | 97%
RET (Homo sapiens, UniProt P07949) | 54.1%
CDK7 (Homo sapiens, UniProt P50613) | 81.1%
DMPK (Homo sapiens, UniProt Q09013) | 93.2%
CSNK2A2 (Homo sapiens, UniProt P19784) | 97.5%
NTRK3 (Homo sapiens, UniProt Q16288) | 37.6%
DYRK4 (Homo sapiens, UniProt Q9NR20) | 105%
PRKD1 (Homo sapiens, UniProt Q15139) | 66.5%
MAP3K2 (Homo sapiens, UniProt Q9Y2U5) | 11.3%

Repeated from above (study 1):
target | observed | remaining binding [%]
MARK3 (Homo sapiens, UniProt P27448) | cell-free assay | 100
MAPK10 (Homo sapiens, UniProt P53779) | cell-free assay | 80
SRMS (Homo sapiens, UniProt Q9H3Y6) | cell-free assay | 63
PDPK1 (Homo sapiens, UniProt O15530) | cell-free assay | 100
